Published values of several laboratories.
Protocols differ between the studies behind these lines.
Method: steady-state kinetics
B1: Mj-MAT W387F/Y170W (Methanocaldococcus jannaschii, UniProt Q58605); chain MRNIIVKKLDVEPIEERPTEIVERKGLGHPDSICDGIAESVSRALCKMYMEKFGTILHHNTDQVELVGGHAYPKFGGGVMVSPIYILLSGRATMEILDKEKNEVIKLPVGTTAVKAAKEYLKKVLRNVDVDKDVIIDCRIGQGSMDLVDVFERQKNEVPLANDTSFGVGWAPLSTTERLVLETERFLNSDELKNEIPAVGEDIKVMGLREGKKITLTIAMAVVDRYVKNIEEYKEVIEKVRKKVEDLAKKIADGYEVEIHINTADDYERESVYLTVTGTSAEMGDDGSVGRGNRVNGLITPFRPMSMEAASGKNPVNHVGKIYNILANLIANDIAKLEGVKECYVRILSQIGKPINEPKALDIEIITEDSYDIKDIEPKAKEIANKFLDNIMEVQKMIVEGKVTTF
B2: UGT3A2 S435Y (Homo sapiens, UniProt Q3SY77); chain AKILTISTVGGSHYLLMDRVSQILQDHGHNVTMLNHKRGPFMPDFKKEEKSYQVISWLAPEDHQREFKKSFDFFLEETLGGRGKFENLLNVLEYLALQCSHFLNRKDIMDSLKNENFDMVIVETFDYCPFLIAEKLGKPFVAILSTSFGSLEFGLPIPLSYVPVFRSLLTDHMDFWGRVKNFLMFFSFCRRQQHMQSTFDNTIKEHFTEGSRPVLSHLLLKAELWFINSDFAFDFARPLLPNTVYVGGLMEKPIKPVPQDLENFIAKFGDSGFVLVTLGSMVNTCQNPEIFKEMNNAFAHLPQGVIWKCQCSHWPKDVHLAANVKIVDWLPQSDLLAHPSIRLFVTHGGQNSIMEAIQHGVPMVGIPLFGDQPENMVRVEAKKFGVSIQLKKLKAETLALKMKQIMEDKRYKYAAVAASVILRSHPLSPTQRLVGWIDHVLQTGGATHLKPYVFQQPWHEQYLLDVFVFLLGLTLGTLWLCGKLLGMAVWWLRGARKVKET
B3: enzyme (Thermobifida fusca, UniProt Q47RA9); chain MIMIMASKSSPHDLPDVSGLSIAVLGGTGDQGRGLARRFAMAGHEVILGSRSAERAQAVAAELGEGLPVRGMDNAGAAEAGDVVIVAVPWDGHRALLESLKDVLAGKIVVDCVNPLGFDKRGAYALPVEEGSAAEQAAAILPDSRVVAAFHHVSAVLLLDPEVEKVDLDVLVLGDDREATDVVRALAARIPGVRGVYGGRLRNAHQVEAFTANLISINRRYKAHAGIRITDI
B4: UCK2 (Homo sapiens, UniProt Q9BZX2); chain MAGDSEQTLQNHQQPNGGEPFLIGVSGGTASGKSSVCAKIVQLLGQNEVDYRQKQVVILSQDSFYRVLTSEQKAKALKGQFNFDHPDAFDNELILKTLKEITEGKTVQIPVYDFVSHSRKEETVTVYPADVVLFEGILAFYSQEVRDLFQMKLFVDTDADTRLSRRVLRDISERGRDLEQILSQYITFVKPAFEEFCLPTKKYADVIIPRGADNLVAINLIVQHIQDILNGGPSKRQTNGCLNGYTPSRKRQASESSSRPH
B5: mtnK (Bacillus subtilis, UniProt O31663); chain MGVTKTPLYETLNESSAVALAVKLGLFPSKSTLTCQEIGDGNLNYVFHIYDQEHDRALIIKQAVPYAKVVGESWPLTIDRARIESSALIRQGEHVPHLVPRVFYSDTEMAVTVMEDLSHLKIARKGLIEGENYPHLSQHIGEFLGKTLFYSSDYALEPKVKKQLVKQFTNPELCDITERLVFTDPFFDHDTNDFEEELRPFVEKLWNNDSVKIEAAKLKKSFLTSAETLIHGDLHTGSIFASEHETKVIDPEFAFYGPIGFDVGQFIANLFLNALSRDGADREPLYEHVNQVWETFEETFSEAWQKDSLDVYANIDGYLTDTLSHIFEEAIGFAGCELIRRTIGLAHVADLDTIVPFDKRIGRKRLALETGTAFIEKRSEFKTITDVIELFKLLVKE
B6: MCAT R178Q (Homo sapiens, UniProt Q8IVS2); chain GQGSQVVGMGRGLLNYPRVRELYAAARRVLGYDLLELSLHGPQETLDRTVHCQPAIFVASLAAVEKLHHLQPSVIENCVAAAGFSVGEFAALVFAGAMEFAEGLYAVKIQAEAMQEASEAVPSGMLSVLGQPQSKFNFACLEAREHCKSLGIENPVCEVSNYLFPDCRVISGHQEALRFLQKNSSKFHFRRTRMLPVSGAFHTRLMEPAVEPLTQALKAVDIKKPLVSVYSNVHAHRYRHPGHIHKLLAQQLVSPVKWEQTMHAIYERKKGRGFPQTFEVGPGRQLGAILKSCNMQAWKSYSAVDVL
B7: Nudt8 (Mus musculus, UniProt Q9CR24); chain MLPDGLSAEDEQRCRQLLARTTARLRSRPAAAAVLVPLCLVRGVPALLYTLRSSRLVGRHKGEVSFPGGKCDPDDQDVIHTALRETQEELGLEVPKEHVWGVLQPVYDREKATIVPVLANVGPLDLQSLRPNLEEVDEVFEMSLAHLLQTQNQGYTHFCQGGHFSYTLPVFLHGPHRVWGLTAVITELTLKLLAPGFYQPSLAVPELPRG
B8: Tat (Mus musculus, UniProt Q8QZR1); chain WNVRPSDMSNKTFNPIRAIVDNMKVKPNPNKTVISLSIGDPTVFGNLPTDPEVTQAMKDALDSGKYNGYAPSIGYLSSREEVASYYHCPEAPLEAKDVILTSGCSQAIELCLAVLANPGQNILIPRPGFSLYRTLAESMGIEVKLYNLLPEKSWEIDLKQLESLIDEKTACLVVNNPSNPCGSVFSKRHLQKILAVAERQCVPILADEIYGDMVFSDCKYEPMATLSTNVPILSCGGLAKRWLVPGWRLGWILIHDRRDIFGNEIRDGLVKLSQRILGPCTIVQGALKSILQRTPQEFYQDTLSFLKSNADLCYGALSAIPGLQPVRPSGAMYLMVGIEMEHFPEFENDVEFTERLIAEQSVHCLPATCFEYPNFFRVVITVPEVMMLEACSRIQEFCEQHY
B9: ltaE H126F/H83F (Escherichia coli, UniProt P75823); chain MIDLRSDTVTRPSRAMLEAMMAAPVGDDVYGDDPTVNALQDYAAELSGKEAAIFLPTGTQANLVALLSHCERGEEYIVGQAAFNYLFEAGGAAVLGSIQPQPIDAAADGTLPLDKVAMKIKPDDIFFARTKLLSLENTHNGKVLPREYLKEAWEFTRERNLALHVDGARIFNAVVAYGCELKEITQYCDSFTICLSKGLGTPVGSLLVGNRDYIKRAIRWRKMTGGGMRQSGILAAAGIYALKNNVARLQEDHDNAAWMAEQLREAGADVMRQDTNMLFVRVGEENAAALGEYMKARNVLINASPIVRLVTHLDVSREQLAEVAAHWRAFLAR
UniProt P05181, sequence (whole entry, looked up): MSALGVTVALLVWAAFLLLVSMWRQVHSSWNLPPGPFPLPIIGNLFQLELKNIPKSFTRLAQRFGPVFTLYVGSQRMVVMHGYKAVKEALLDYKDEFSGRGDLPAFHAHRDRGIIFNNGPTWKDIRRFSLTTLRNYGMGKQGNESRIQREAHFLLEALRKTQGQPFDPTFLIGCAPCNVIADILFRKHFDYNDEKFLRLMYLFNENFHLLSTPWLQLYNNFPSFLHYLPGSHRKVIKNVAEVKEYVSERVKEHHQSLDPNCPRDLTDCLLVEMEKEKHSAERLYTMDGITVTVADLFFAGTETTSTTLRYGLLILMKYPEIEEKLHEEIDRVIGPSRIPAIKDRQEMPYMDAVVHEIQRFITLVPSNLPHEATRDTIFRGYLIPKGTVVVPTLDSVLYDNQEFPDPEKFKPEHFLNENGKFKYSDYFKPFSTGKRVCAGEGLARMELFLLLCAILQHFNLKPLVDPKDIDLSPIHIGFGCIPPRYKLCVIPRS
UniProt O43529, sequence (whole entry, looked up): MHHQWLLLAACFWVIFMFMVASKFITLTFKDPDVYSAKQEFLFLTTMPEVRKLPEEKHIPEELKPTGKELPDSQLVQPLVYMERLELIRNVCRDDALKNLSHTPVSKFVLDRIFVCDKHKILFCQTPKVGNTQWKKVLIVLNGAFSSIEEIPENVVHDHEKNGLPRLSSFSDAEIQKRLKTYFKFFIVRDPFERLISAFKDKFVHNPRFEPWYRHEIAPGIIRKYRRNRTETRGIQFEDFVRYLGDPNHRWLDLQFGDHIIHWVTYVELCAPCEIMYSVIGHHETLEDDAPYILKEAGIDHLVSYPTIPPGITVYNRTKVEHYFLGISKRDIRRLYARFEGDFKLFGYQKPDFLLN
UniProt Q9NZ08, sequence (whole entry, looked up): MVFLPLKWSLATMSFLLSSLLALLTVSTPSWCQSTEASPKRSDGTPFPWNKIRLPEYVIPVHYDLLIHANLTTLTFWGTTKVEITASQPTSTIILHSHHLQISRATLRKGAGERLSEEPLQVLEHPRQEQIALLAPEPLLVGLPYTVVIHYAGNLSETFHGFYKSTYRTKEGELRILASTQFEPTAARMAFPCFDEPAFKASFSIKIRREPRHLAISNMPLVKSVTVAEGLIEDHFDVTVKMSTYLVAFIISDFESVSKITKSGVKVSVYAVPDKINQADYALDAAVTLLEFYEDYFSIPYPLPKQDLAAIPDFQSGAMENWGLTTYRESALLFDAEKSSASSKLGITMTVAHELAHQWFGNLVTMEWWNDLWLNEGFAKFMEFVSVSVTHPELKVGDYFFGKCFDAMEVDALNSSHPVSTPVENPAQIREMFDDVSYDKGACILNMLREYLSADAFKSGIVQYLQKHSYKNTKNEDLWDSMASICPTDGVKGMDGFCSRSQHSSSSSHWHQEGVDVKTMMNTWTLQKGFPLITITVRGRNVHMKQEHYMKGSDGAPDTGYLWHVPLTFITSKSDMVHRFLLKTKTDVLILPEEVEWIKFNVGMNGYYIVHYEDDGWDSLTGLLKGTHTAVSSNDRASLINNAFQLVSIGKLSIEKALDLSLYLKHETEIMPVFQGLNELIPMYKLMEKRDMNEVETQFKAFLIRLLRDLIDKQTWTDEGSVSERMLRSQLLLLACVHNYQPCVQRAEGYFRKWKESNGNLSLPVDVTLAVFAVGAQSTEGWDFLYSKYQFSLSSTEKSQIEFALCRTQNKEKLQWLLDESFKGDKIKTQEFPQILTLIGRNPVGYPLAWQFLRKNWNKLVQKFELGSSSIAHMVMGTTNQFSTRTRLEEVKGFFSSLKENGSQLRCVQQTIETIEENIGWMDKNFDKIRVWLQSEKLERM

Substance = ERAP1 (Homo sapiens, UniProt Q9NZ08); substrate = CC(C)C[C@H](NC(=O)CNC(=O)[C@H](CCC(=O)O)NC(=O)[C@H](Cc1ccccc1)NC(=O)[C@H](CCCNC(=N)N)NC(=O)[C@H](CCCCN)NC(=O)[C@@H](N)Cc1ccc(O)cc1)C(=O)N[C@H](C(=O)N[C@@H](CCC(N)=O)C(=O)N[C@@H](CCCNC(=N)N)C(=O)O)[C@@H](C)O; temperature = 25 °C; Km = 30 µM
Substance = enzyme (Clostridium autoethanogenum, UniProt A0ABM5NRF0); substrate = NC(=O)C1=CN([C@@H]2O[C@H](COP(=O)(O)OP(=O)(O)OC[C@H]3O[C@@H](n4cnc5c(N)ncnc54)[C@H](OP(=O)(O)O)[C@@H]3O)[C@@H](O)[C@H]2O)C=CC1; pH = pH 7.5; temperature = 25 °C; setting = cofactor varied; Km = 1.7 µM
Substance = VC1 (Vicia faba, UniProt A0AAV0YZD8); substrate = Nc1nc2c(ncn2[C@@H]2O[C@H](COP(=O)(O)OP(=O)(O)OP(=O)(O)O)[C@@H](O)[C@H]2O)c(=O)[nH]1; pH = pH 8; setting = NaCl 100 mM; with = GTP 0-244 µM; Km = 66 µM
Substance = CHST10 (Homo sapiens, UniProt O43529); substrate = [H][C@@]12CCc3cc(O[C@@H]4O[C@H](C(=O)O)[C@@H](O)[C@H](O)[C@H]4O)ccc3[C@@]1([H])CC[C@]1(C)[C@@H](O)CC[C@@]21[H]; pH = pH 7.2; temperature = 37 °C; Km = 321 µM
Substance = B1 (Mj-MAT W387F/Y170W); substrate = CSCC[C@H](N)C(=O)O; temperature = 55 °C; with = ATP 2.5 mM, methionine 0.05-1 mM; Km = 1000 µM
Substance = B2 (UGT3A2 S435Y); substrate = O=c1ccn([C@@H]2O[C@H](CO[P@@](=O)(O)O[P@@](=O)(O)O[C@H]3O[C@H](CO)[C@@H](O)[C@H](O)[C@H]3O)[C@@H](O)[C@H]2O)c(=O)[nH]1; pH = pH 7.4; temperature = 37 °C; setting = not purified; with = 1-OH-pyrene 16 µM, MgCl2 10 mM, alamethicin; Km = 1280 µM
Substance = B3 (enzyme); substrate = NC(=O)c1ccc[n+](CCO)c1; pH = pH 8; temperature = 25 °C; Km = 20000 µM
Substance = enzyme (Candida albicans, UniProt A0A1D8PHX1); substrate = CCCCCCCC/C=C\CCCCCCCC(=O)SCCNC(=O)CCNC(=O)[C@H](O)C(C)(C)COP(=O)(O)OP(=O)(O)OC[C@H]1O[C@@H](n2cnc3c(N)ncnc32)[C@H](O)[C@@H]1OP(=O)(O)O; pH = pH 7.4; temperature = 37 °C; setting = apparent, not purified; Km = 36.6 µM
Substance = enzyme (Coprinopsis marcescibilis, UniProt A0A5C3KD26); substrate = O=[N+]([O-])c1ccc2c(c1)OCO2; Km = 241 µM
Substance = B4 (UCK2); substrate = Nc1ccn([C@@H]2O[C@H](CO)[C@@H](O)[C@H]2O)c(=O)n1; pH = pH 7.2; temperature = 25 °C; setting = KCl 100 mM; with = ATP 100–200 µM; Km = 42 µM
Substance = CYP2E1 (Homo sapiens, UniProt P05181); substrate = C=Cc1ccc(Br)cc1; pH = pH 7.4; temperature = 37 °C; Km = 39 µM
Substance = B5 (mtnK); substrate = Nc1ncnc2c1ncn2[C@@H]1O[C@H](COP(=O)(O)OP(=O)(O)OP(=O)(O)O)[C@@H](O)[C@H]1O; pH = pH 7.8; temperature = 30 °C; with = 5-methylthioribose; Km = 90 µM
Substance = B6 (MCAT R178Q); substrate = CC(C)(COP(=O)(O)OP(=O)(O)OC[C@H]1O[C@@H](n2cnc3c(N)ncnc32)[C@H](O)[C@@H]1OP(=O)(O)O)[C@@H](O)C(=O)NCCC(=O)NCCSC(=O)CC(=O)O; pH = pH 6.8; temperature = 20 °C; setting = labelled substrate; with = holo-ACP 20 µM; Km = 38.6 µM
Substance = B7 (Nudt8); substrate = CCC(=O)SCCNC(=O)CCNC(=O)[C@H](O)C(C)(C)COP(=O)(O)OP(=O)(O)OC[C@H]1O[C@@H](n2cnc3c(N)ncnc32)[C@H](O)[C@@H]1OP(=O)(O)O; pH = pH 8.5; with = 2 mM Mn2+; Km = 318 µM
Substance = CYP2C19 (Homo sapiens, UniProt P33261); substrate = CN1C(=O)CC[C@H]1c1cccnc1; matrix = microsomes; pH = pH 6.7; setting = cotinine to COX, not purified; Km = 405 µM
Substance = B8 (Tat); substrate = N[C@@H](CCC(=O)O)C(=O)O; pH = pH 7; temperature = 38 °C; with = PLP; Km = 4900 µM
Substance = B9 (ltaE H126F/H83F); substrate = C[C@H](O)[C@H](N)C(=O)O; pH = pH 7; temperature = 30 °C; setting = potassium phosphate 20 mM, retro-aldol cleavage; with = PLP 500 µM; Km = 7400 µM

Repeated from above:
Substance = B5 (mtnK); substrate = Nc1ncnc2c1ncn2[C@@H]1O[C@H](COP(=O)(O)OP(=O)(O)OP(=O)(O)O)[C@@H](O)[C@H]1O; pH = pH 7.8; temperature = 30 °C; with = 5-methylthioribose; Km = 90 µM
